Experimental data from different studies.
Numbered parts are unrelated; each lists some results of a single study.

Study 1
Target: Ras GTPase-activating protein-binding protein 1, full length (G3BP1, Homo sapiens, UniProt Q13283)
UniProt Q13283, sequence (whole entry, looked up): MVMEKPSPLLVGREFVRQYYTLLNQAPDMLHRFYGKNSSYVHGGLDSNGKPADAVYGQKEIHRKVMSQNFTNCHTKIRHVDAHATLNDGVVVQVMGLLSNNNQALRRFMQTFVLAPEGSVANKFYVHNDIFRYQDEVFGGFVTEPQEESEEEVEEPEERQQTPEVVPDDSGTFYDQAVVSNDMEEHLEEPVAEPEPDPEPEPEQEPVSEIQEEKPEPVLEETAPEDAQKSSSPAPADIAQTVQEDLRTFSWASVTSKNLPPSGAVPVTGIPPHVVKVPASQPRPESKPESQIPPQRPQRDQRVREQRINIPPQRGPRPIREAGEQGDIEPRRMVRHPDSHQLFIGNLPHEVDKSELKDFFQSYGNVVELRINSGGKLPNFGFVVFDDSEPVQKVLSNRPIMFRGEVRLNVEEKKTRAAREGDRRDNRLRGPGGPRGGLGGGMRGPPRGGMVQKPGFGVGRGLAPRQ
Method: RNA Bind-n-Seq
Form: RNA
Medium: in vitro
Tested at: 200 nM
Setting: whole 134-nt RNA, ends assumed
With: 150 mM LiCl
Relative to: input library
Direction: higher = stronger binding
Endpoint: log2 enrichment
Library: 7-deaza-guanosine replaces G
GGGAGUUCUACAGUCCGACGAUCUGGGAGGUGGAUUUUGUUUAUUUUUUUAGCUCAUUUCCAGGGGUGGGAAUUUUUUUUUAAUAUGUGUCAUGAAUAAAGUUGUUUUUGAUAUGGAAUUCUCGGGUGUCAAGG: -0.37
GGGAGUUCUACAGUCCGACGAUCUUAGAAGAAUUUGGAAGGCCUUAAAUAUAGUAGCUUAGUUUGAAAAAUGUGAAGGACUUUCGUAACGGAAGUAAUUCAAGAUCAAGAGUAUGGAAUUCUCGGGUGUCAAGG: -3.26
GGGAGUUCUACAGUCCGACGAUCGGAGGAAGUAAAAACAAAUGGAAAUGCUUCGGAUAGUGGCAGGGGUGGGGGUUGCUAAGGAAAGGGUGGGAUGGGAGUGGGUAAAGAGUUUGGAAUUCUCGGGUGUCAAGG: -0.0753
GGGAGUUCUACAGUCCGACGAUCUCCUCAAGUCCUGUGCUACACAUCGUAUGUACCGAAUCGGAGGGAGGGAGGAAAGUAUUAUGUUACGCCGUUCGGAUCUGCACUUCCAGCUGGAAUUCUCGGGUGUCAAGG: -0.907
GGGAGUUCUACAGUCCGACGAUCUGUGCUACACAUCGUAUGUACCGAAUCGGGGCCCCCCCGGGGCCCCCCCGGGCCCCCCCGGGAAAGUAUUAUGUUACGCCGUUCGGAUCUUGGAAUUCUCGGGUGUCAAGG: -0.434
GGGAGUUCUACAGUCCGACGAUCUGUGCUACACAUCGUAUGUACCGAAUCGGGGUUUUUGGGGUUUUUUUGGGGAAAAAAAGGGGAAAGUAUUAUGUUACGCCGUUCGGAUCUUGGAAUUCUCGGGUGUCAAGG: 0.629
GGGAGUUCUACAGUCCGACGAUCUAACUUUAGAGGAGGAUCUGAUGGAUAUGGCCGUGGACGUGGAUUUGGGGAUGGCUAUAAUGGGUAUGGAGGAGGACCUGGAGGUGGCAAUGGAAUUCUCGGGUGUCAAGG: -0.624
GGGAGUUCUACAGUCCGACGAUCACCAUGCAGGUGGGCAUCUUUGGCAAGUGGGGCAAGGGGGGGAUAGGGAGGGGGGUAACACUUUGGGAACAGGUGGUCCCAGGUCGUUUCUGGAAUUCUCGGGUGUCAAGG: 0.306
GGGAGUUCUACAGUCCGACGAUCCCUCAAGUCCUGUGCUACACAUCGUAUGUACCGAAUCGGGGAGGGGAGGAGGGAAAGUAUUAUGUUACGCCGUUCGGAUCUGCACUUCCAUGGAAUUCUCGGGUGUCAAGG: 0.732
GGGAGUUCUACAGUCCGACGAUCCACAGACAACACGCACCCACACAGACACAGAGGGAAGGAAAUGGGAUGGGGACAGGGUGCACAGCAGGGCGGGGUAGGACCCCAGCCCCUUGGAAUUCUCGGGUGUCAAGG: -1.19
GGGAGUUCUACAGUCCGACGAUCCACAGACAACACGCACCCACACAGACACAGAGGGAAGGGGUUGGGAUGGGGACAGGGUGCACAGCAGGGCGGGGUAGGACCCCAGCCAAAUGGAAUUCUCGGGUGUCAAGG: -0.694

Study 2
Target: RNA binding protein fox-1 homolog 2, RRM domain, GST-SBP tag (RBFOX2, Homo sapiens, UniProt O43251-10, residues 100-194)
Method: RNA Bind-n-Seq
Form: RNA
Medium: in vitro
Tested at: 365 nM
Setting: natural RNA segment, single round, ends assumed
Relative to: no-protein control
Direction: higher = stronger binding
Endpoint: RBNS enrichment (R)
Target sequence (chain): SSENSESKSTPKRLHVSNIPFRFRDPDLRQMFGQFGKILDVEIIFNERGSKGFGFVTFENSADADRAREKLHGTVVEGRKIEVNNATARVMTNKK
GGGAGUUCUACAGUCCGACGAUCGGGUAGGGGAUCUGCUUCCCACUGUGACUGGGCUAUGGGAUUCUGACUACCUUGCUUACAGAUUCAUGGUUUGAUAAAUUUGUUGUAUUCAAAAACUUGAAAUGCAGGACUGGAAUUCUCGGGUGCCAA: 0.367
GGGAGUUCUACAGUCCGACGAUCUUAAUGGCUUUGAUUUGUGCUCUAAAGCAAAGCAAAUAACACAGGUUAAUGGUAACUUGUUGUUCUCCUGAUCUAACUGAGUACCACCUUUGGUGUUAAGUGUCAUUGUUUGGAAUUCUCGGGUGCCAA: 0.271
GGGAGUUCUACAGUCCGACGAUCUGUGCCACUGUUUGCUUCAACAGUAUAUCCUAAUAAGCCUCACCUAUUUAAUCCAAUGAGUUUUAAAUCUAAAUCUCAUUCCCUUCUUCUUUCCCUACCUUUUUUUUCUUUGGAAUUCUCGGGUGCCAA: 1.91
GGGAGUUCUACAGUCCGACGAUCAAUGCAGGGCCCCUUUCUGAUCUCACCAUUUCACCAUGCAUCUUGGAAUUCAGUAAGUGCAUAUCCUAACUUGCCCAUAUUCUAAAUCAUCUGGUUGGUUUUCAGCCUAGUGGAAUUCUCGGGUGCCAA: 1.53
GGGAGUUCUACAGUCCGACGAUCCCUUAAGCCCCAAGUAUAAAAGAGCUUAGGGGAAGGUGUAAGGGCCACAGGCUGGAAGCUGACAGCCUAGCAGGCACUCCCUUCCUCUCUUCCUUCUGCUGUGUUCCUAUUGGAAUUCUCGGGUGCCAA: 0.43
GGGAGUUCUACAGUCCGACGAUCGUCCCAAUGUUACCUCAACACCACGAAGCUUAUUUCUAUACUGGAGUUCUUCAGUAUAGAAAGUGGAAGUGGUUUAAAUGGCAUAGUACAUAUACAUAUAUAUAUGGCCUUGGAAUUCUCGGGUGCCAA: 0.288
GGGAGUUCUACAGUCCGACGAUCCCCCACCAUGUGCUCCCGUGCACUCCUCAGAUGGUCAGAGGGGUAACCCAAGUCCUUAGAGAAUUUGGGGACCAAUAGAAUAUGUGAUGUGUGAAUUUUCUUUAAAAAACUGGAAUUCUCGGGUGCCAA: 0.388
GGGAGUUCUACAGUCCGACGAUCUUUUGUGGUUACUACCUGGCUUGGCUGGCCUUGCGGUUCACCAGAUUAAUUUACAAACUCCCCCACUUUAUUUUGUGCUAUGUAGAUCUGGCCAUACUUGCAUUAGUGACUGGAAUUCUCGGGUGCCAA: 1.58
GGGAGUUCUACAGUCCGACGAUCCGUGCCUGGCUGGUGCCAUUCAGACCGAGGCCGAAGGACUUGUGAACAAAAGCACAGAGAUGGCUCAGUGGUUAGGAGCACUGACUCCUUUUCCGUAGGUCCUGAGUUCAUGGAAUUCUCGGGUGCCAA: 0.35

Study 3
Target: Histone acetyltransferase KAT6A, winged helix 1, GST fusion (KAT6A, Homo sapiens, UniProt Q92794, residues 1-85)
Method: protein binding microarray
Form: double-stranded DNA, one strand shown
Medium: in vitro
Tested at: not given
Setting: 8-mer, flanks averaged, mean of 2 arrays, mostly near background
Relative to: not given
Direction: higher = stronger binding
Endpoint: E-score
Construct (chain): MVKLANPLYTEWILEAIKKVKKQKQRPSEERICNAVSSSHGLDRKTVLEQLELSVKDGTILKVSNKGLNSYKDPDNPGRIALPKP
GGTTCTAC: 0.017
AAACTTCA: -0.0964
AGCCATCC: -0.0493
AGTGCTCC: 0.0539
AGCAGGAC: -0.181
GCAAGCCC: 0.0186
ACGACATA: -0.138
AGCCTTAT: -0.173
AGAATAAG: -0.264
AGTCAGGC: -0.0414
AAACAGAG: -0.185
TATTAATA: 0.0938
ATCCGGGC: 0.248
GAGGGTGA: -0.111
ACAGCCAT: -0.0285
GAATATAA: -0.115
AGACTAGA: -0.219
GAGCGTAC: 0.265
GCTATCTA: -0.0904
CCCATAAG: -0.113
ACAGTGAA: -0.0666
ACCGCGGA: 0.338
CAATTGGG: -0.189
CGTGTGCC: 0.104
TATGGACA: -0.104

Study 4
Target: RING finger protein unkempt homolog, zinc fingers 1-6, GST-SBP tag (UNK, Homo sapiens, UniProt Q9C0B0, residues 30-357)
UniProt Q9C0B0, sequence (30-357, looked up): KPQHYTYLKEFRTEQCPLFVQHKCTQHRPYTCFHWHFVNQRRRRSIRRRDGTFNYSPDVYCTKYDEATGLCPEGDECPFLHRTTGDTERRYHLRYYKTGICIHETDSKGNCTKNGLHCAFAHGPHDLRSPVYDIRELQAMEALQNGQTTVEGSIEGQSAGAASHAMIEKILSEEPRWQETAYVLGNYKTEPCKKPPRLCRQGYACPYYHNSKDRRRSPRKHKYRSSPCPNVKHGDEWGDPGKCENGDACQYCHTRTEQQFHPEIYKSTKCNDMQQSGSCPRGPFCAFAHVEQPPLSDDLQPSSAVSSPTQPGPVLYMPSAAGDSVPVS
Method: RNA Bind-n-Seq
Form: RNA
Medium: in vitro
Tested at: not given
Setting: RNA with constant flanks, ends assumed
Relative to: input RNA pool
Direction: higher = stronger binding
Endpoint: bound/input enrichment
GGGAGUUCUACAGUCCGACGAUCAUCUUUAUCUCACAAGAUGAAAUACAGUCAUUUAUGGCUAAUAACCAGUCUUUCUACAGCAACCGAGAACAAUACCGACAGCAUCUGAAGGAGAAAUUUAAUAAAUACUGCCGCUUAAAUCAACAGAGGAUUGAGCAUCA: 0.225 ratio
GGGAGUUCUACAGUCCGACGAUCCAUCUUAGGUCAUCUUCUGUAGAAGAUGUUAAACUAAUUAUAAGCGAGGGGAGACCUACCACCGAAGUUCGAAGAUGUAGCAUGCCUUCUGUCAUUUGUGAACAUACCAAACAAUUCCAACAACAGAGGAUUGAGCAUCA: 0.218 ratio
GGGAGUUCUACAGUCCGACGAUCGUCACCCUCAUGAUGGAUGCCACCAACAUGCCUGCCGUCAAAGCUAUCAUAUACCAGUACACCGAAGAGAUUUAUCACCGGAUCCCCAACUCAGACCCAUCAUCAAGCAAAACCAAGCAGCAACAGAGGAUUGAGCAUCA: 0.484 ratio
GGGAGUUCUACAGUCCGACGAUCAGAGAAAUGAGAAAGAAUCUCACACAAGAUGAGAUGCAAAGAAUGUCUACUAGAGUCCUUUCCGCCACUCUUUCCAUCCCUAUUACUCCUGAGCGUACGGAUAUUGCUCGACUUCUGGAUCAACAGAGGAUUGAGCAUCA: 0.29 ratio
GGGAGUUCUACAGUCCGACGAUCCCUAAGCAGACCUCCUCCUACAACAUCCCUGCCUCUGCCAGCAUCUCUCGGACAUCCAUCCGCAGAUAUGACUCUUCCUUCAGGUACACAGGCAGCCCAGACAGCCUCCGGUCCCGGGUCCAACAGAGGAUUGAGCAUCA: 0.225 ratio
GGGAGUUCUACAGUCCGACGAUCCAGAUUGGAAAGAUGAGAUAUGUCAGUGUUCGGGACUUCAAAGGAAAAAUUCUAAUUGAUAUCCGAGAAUAUUGGAUGGAUUCAGAAGGUGAAAUGAAACCAGGAAGAAAAGGUAUUUCUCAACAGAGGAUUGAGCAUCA: 0.172 ratio
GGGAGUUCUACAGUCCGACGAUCACGAACUUUCAGGCAACACCGUUAUUGAACGACCCAGACAGAUCUGUCCUUAUGUAAUUGCCGCUUUUCGAUACAGGGAAUCUAAAACUAUGGCACCACCAGCUCAUAAAAGCAUACUUGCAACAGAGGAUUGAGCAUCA: 0.215 ratio
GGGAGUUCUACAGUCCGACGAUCAAUGCUGUUCCUUUGGGAACCACGGCCAAAGAAGAGAUGGAGCGGUUCUGGAAUAAGAAUACCGGUUCAAACCGUCCUCUGUCUCCCCACAUUACUAUCUACAGUUGGUCUCUUCCCAUGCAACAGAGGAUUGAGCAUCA: 0.109 ratio
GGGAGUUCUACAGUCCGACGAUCGUGGCUCACCAUGCUUCUGAAAACAACAGGAUUUUCACUUUGAAUCUAUCUGCACCGUUUAUCCGCCAGUUCUACAAGGAAUCAUUGAUGAAAGUUAUGCCUUAUGUUGAUAUACUUUUUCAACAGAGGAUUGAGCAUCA: 0.198 ratio
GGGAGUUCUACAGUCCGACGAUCGAAUCAAGGAUAUCAUUUGAGGAUGUGGCUGUAGACUUCUCCUGGGACCAGUGGCAGCUGCUCCGCCCUACUCAAAAGAGUUUAUACAGAGAUGUGAUGUUGGAGAACUGCAGCAGCCUUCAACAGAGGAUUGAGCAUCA: 0.293 ratio
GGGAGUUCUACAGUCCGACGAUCGAGUGCCUGAGCAACAUCCGCGAGUUCCUGCGCGCCUGCGGGGCGUCCCUGCGCCCCGAGACUUUUGAUGCAAAUGAUUUGUAUCAGGGGCAGAACUUUAACAAGGUCCUCAGCUCCUUGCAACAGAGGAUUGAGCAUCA: 0.141 ratio

Excerpt of the above (study 4):
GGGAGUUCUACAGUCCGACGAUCGAGUGCCUGAGCAACAUCCGCGAGUUCCUGCGCGCCUGCGGGGCGUCCCUGCGCCCCGAGACUUUUGAUGCAAAUGAUUUGUAUCAGGGGCAGAACUUUAACAAGGUCCUCAGCUCCUUGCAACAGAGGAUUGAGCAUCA: 0.141 ratio
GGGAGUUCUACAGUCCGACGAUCACGAACUUUCAGGCAACACCGUUAUUGAACGACCCAGACAGAUCUGUCCUUAUGUAAUUGCCGCUUUUCGAUACAGGGAAUCUAAAACUAUGGCACCACCAGCUCAUAAAAGCAUACUUGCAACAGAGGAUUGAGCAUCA: 0.215 ratio
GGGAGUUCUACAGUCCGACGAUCAUCUUUAUCUCACAAGAUGAAAUACAGUCAUUUAUGGCUAAUAACCAGUCUUUCUACAGCAACCGAGAACAAUACCGACAGCAUCUGAAGGAGAAAUUUAAUAAAUACUGCCGCUUAAAUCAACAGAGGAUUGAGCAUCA: 0.225 ratio
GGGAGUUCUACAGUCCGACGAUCGUGGCUCACCAUGCUUCUGAAAACAACAGGAUUUUCACUUUGAAUCUAUCUGCACCGUUUAUCCGCCAGUUCUACAAGGAAUCAUUGAUGAAAGUUAUGCCUUAUGUUGAUAUACUUUUUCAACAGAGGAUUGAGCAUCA: 0.198 ratio
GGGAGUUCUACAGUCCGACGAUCCAUCUUAGGUCAUCUUCUGUAGAAGAUGUUAAACUAAUUAUAAGCGAGGGGAGACCUACCACCGAAGUUCGAAGAUGUAGCAUGCCUUCUGUCAUUUGUGAACAUACCAAACAAUUCCAACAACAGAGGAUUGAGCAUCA: 0.218 ratio
